# Published values collected from several papers.
# Numbered parts are unrelated; each lists some results of a single study. Positions count from the first letter of the parent shown.
# Chain of UniProt O15294 (whole entry, looked up): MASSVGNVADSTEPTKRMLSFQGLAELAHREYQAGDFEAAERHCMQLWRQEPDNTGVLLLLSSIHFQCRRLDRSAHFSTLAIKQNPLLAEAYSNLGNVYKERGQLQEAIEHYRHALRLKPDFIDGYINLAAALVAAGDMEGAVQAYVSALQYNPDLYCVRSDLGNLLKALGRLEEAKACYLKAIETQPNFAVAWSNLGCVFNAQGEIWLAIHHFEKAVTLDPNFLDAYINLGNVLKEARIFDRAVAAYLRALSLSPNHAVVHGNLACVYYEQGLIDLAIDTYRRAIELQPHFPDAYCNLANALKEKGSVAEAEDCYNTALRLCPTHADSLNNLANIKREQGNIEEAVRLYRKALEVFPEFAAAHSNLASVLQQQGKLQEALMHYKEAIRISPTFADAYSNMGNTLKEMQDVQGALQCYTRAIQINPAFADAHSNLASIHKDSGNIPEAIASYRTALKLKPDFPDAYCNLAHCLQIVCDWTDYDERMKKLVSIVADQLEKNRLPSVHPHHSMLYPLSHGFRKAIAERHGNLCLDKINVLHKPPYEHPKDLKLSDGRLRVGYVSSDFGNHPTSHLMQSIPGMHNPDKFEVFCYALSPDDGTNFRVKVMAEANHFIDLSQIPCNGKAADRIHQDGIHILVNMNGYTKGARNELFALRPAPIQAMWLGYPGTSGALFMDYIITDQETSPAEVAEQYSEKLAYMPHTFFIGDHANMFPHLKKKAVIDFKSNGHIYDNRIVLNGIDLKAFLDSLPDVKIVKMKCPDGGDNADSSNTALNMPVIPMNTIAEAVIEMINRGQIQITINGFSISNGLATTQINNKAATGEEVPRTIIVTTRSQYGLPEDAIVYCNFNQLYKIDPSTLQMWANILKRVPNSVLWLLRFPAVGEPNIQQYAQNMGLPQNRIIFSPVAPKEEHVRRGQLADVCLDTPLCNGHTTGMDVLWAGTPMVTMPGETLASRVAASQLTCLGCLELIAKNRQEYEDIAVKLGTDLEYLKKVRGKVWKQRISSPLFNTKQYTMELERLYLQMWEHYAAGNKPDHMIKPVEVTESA

# Sample 1
# Target: TAR DNA-binding protein 43, full length, His tag (TARDBP, Homo sapiens, UniProt Q13148, residues 1-414)
# Technique: RNA Bind-n-Seq
# Molecule type: RNA
# Matrix: in vitro
# Concentration: 20 nM
# Notes: 6-mer, flanks averaged, single round
# Added: 150 mM LiCl
# Baseline: input library
# Reading: higher = stronger binding
Strand,6-mer enrichment (R)
GCAGAU,0.898
CCAUCC,0.923
UUUACG,0.983
UUAGGU,1.04
GCUACC,0.891
UCGACU,0.837
UCCAAC,0.817
CGCCUC,0.928

# Sample 2
# Target: Runt-related transcription factor 1, full length (RUNX1, Homo sapiens, UniProt Q01196-8, residues 1-480)
# Technique: protein-binding microarray
# Molecule type: hairpin DNA
# Matrix: in vitro
# Concentration: not given
# Notes: whole hairpin DNA, median over replicate spots
# Baseline: not given
# Reading: higher = stronger binding
Strand,median fluorescence [a.u.]
GAGGCCTTTCGCGGTTGGCCTCCTGGCCAACCGCGAAAGGCCTCACACTC,2930
CTCAGTTCTGTGGGCTGGACTCCTGTCCAGCCCACAGAACTGAGACACTC (5mC at 28),1950
GAGGCCTGTCGCGGTTGGCCTCCTGGCCAACCGCGACAGGCCTCACACTC (5mC at 32),1800
GAGGCCTCGTGTGGTTGGCCTCCTGGCCAACCACACGAGGCCTCACACTC (5mC at 36),2170
GAGGCCTGTCACGGTTGGCCTCCTGGCCAACCGTGACAGGCCTCACACTC,1670
GAGGCCAGTTGTGGTTGGCCTCCTGGCCAACCACAACTGGCCTCACACTC,3190
CTCAGTCGTGTGGGCTGGACTCCTGTCCAGCCCACACGACTGAGACACTC (5mC at 7),1930
GAGGCCTGTTGTGGTTCGCCTCCTGGCGAACCACAACAGGCCTCACACTC (5mC at 17),2470

# Other studies, line by line
# P1: PafA, mature enzyme, eGFP fusion (Elizabethkingia meningoseptica, UniProt Q9KJX5); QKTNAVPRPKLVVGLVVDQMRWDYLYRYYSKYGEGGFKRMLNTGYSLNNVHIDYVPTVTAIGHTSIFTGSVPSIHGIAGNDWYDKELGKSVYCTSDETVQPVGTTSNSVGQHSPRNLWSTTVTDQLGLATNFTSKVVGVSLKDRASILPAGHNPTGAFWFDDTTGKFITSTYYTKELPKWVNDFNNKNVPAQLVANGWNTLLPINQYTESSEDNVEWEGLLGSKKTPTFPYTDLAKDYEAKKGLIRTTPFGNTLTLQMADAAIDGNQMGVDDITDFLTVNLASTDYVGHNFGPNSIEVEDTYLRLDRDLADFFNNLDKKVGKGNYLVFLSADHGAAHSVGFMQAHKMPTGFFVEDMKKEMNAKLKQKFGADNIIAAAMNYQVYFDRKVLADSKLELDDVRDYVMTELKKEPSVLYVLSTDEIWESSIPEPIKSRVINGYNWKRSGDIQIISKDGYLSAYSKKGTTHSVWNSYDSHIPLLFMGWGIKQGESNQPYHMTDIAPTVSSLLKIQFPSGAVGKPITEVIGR
Molecule,tested on,test,test system,conditions,scale,endpoint,value
capivasertib,HuT78,,,"concentration not given, unit not given",baseline: untreated control,viability,1.02
QNLEFFPKYQLVTR,"OGT (Homo sapiens, UniProt O15294)","binding, phage display NGS",peptide,concentration not given,baseline: input library,enrichment fold change,4.18
P1 F291G,"tungstate, free oxyanion",microfluidic competitive inhibition,"in vitro, cell-free expressed","not given, derived from inhibition constants, unchanged parent 2230 nM",lower = stronger binding,oxyanion analog dissociation constant,1.84 µM
NVP-AEW541,HuT78,,,"concentration not given, unit not given",baseline: untreated control,viability,1.12

# Some of these lines once more (sample 1):
Strand,6-mer enrichment (R)
GCAGAU,0.898
